Experimental data gathered from unrelated publications.
Parts stem from different laboratories: compare values within a part only. Positions count from the first letter of the parent shown.

Set 1
Target: Hepatocyte nuclear factor 3-alpha (Foxa1, Mus musculus, UniProt P35582, residues 1-468, full length assumed)
Sequence of UniProt P35582 (whole entry, looked up): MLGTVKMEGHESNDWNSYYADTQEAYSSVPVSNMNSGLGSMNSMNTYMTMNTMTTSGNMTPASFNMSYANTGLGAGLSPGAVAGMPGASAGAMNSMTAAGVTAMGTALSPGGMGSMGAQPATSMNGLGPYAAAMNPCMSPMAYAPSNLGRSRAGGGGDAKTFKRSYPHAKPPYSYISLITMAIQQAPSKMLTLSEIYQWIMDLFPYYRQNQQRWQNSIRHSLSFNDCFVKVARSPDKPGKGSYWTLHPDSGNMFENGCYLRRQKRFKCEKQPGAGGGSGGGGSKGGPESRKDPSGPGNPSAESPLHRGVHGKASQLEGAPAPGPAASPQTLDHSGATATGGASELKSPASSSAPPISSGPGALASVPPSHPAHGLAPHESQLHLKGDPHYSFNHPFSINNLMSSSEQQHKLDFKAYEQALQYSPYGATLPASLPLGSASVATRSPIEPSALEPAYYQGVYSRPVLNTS
Technique: EMSA with sequencing
Form: double-stranded DNA, one strand shown
Medium: in vitro
Concentration: 10 and 20 nM
Notes: whole designed probe, mean of two concentrations, ends assumed
Reference: negative control set to 0
Reading: higher = stronger binding
Constant ends, left off below: GTGAGCGGTGCCCATTGATGGGGAAC … TTTCACTGGGATCGTGGGGAC
Oligonucleotide	normalised bound fraction [ratio]
ATCTTCCCCCTCTTCCTTGCCCCACCAGCTCACCTACGGGGGTTATTTGCACAAAGGAAAATAAATAAAGCCGGCATTCGTTAACGCAGTTCACGCGCATACTGCTGTTTGCTCTGGATGAATCATGGTCCTTTGGCGACGCCAGGCTCCGGGAGAGCAAAGCACCGTGTCAGGGCCATGATCCGGGCTCGCC	0.395
CTGAAAGACTGGCGTAACATGATGAAGAAGGAGGTATTCTGGACCATGTAAAGGACAGCGGATTGCTAAGGTCAACATTTAATGAGTCAGAAAGTCAATAAGAGATGAGTTTGGAATAGTAGGGTCTGGAGATGACGGAAGAGCTGGAATGAATGTTAAACTCAAAAGTGTCAACTCCCATAGGCAGTGGGCA	0.237
AAAAATAGGAAAAAAACTCCTTAGATTGGTGAAACTGACCTGACCTAAGAACTAACCACCTTCTCAGATTATGAAAAACAAAAAGAAGTCTGTGTTTACATTGTTTGTTTCATTTGCCATTATTAACAGTGGCAGGACACAACTGTAAACAAACCAGCATAATCACAAAGCTGGTGCCCTATCCCACCTGCTC	0.466
TTTCCTGGCTGGCAGTTCCTGGGAGGGAGGGGCTCCAGCAGCCGGGAGGCAGGGTGCCGGCCTGCAGTGGCCTATCTTGGTCCCTGCCCAGAGTAATTTAAGGCCGAGCATCTCAGCACGGCTGCCACACCCCCGACTCCACTTCCTCCCTTTGGGGATTCCTGTTGGCTTCTGTGTCCTAGCCTGGCACCCC	-0.0854
CATAGTGCTGCCAAGTAATTCTCTAGGTTGTAGAATTATTATTTATTCAGAACACTAAGCTAGATTCAGTTTTCTGCTAAGCTACAAAATAAGTAATCTTGAATTACTTGGATTCCAGGATCCTGGATATAGACTAAAGATGACATTCCATTATATTTAGAAAATGACTGTTAAGTAAGAGAAAATTTCCAGA	0.211
GCCTTGTTCAATTCTAGAATTTAATCTAGGATGACCCATTGTTTCTATTTGTCACATCTGTTTAGACTTCTCTGGTCTATGACAATTTCTCAGTGTTTGCTTATTTTTCATGAGCTCATAGTTTTGAGGAGTACTCATCAGGTATTTTGTGAAATGTCCCTCAATTTGTATTTGTCTTATGTTTTCTCATAAT	0.308
ATATCTGCTTTGCCTTATAAGATGAGAATTAAACATATTATTAGTTAAACTTGGCTAAATTCTATGCAGTAATAGATAACCCCAAAACCTCTATGTAAACATAAAGTTATTCCCCGATAAAGCAATTTACTGTGGGCCTGGCAACTCTTTCATGCAGCCTTCTTGCTGATCACAGCTAATGGAGACATCGTCA	0.475
TAAACAAAGCTGGTCGCCCAATGAAGAGGCGGCGGGGGCGGGCGCTGGGCCGGGGAGGCCGGGGGCGGAGCCGGGGGCGGGGCGACCGGGCGGTGTTTACAGACCGGCACATGGCGCTTCCGGTTGACGTTGCTGACAGCTAGTGAGGCTTTAGCCCGCTTCGAGCGCCCGGGGGCGGTAAGGCGCGATCATA	0.463

Set 2
Target: Interferon regulatory factor 7, full length, phosphomimetic (IRF7, Homo sapiens, UniProt Q92985, residues 1-503, S101K/S471D/S472D/S475D/S476D/S477D/S483D/S484D/S487D)
Technique: protein-binding microarray
Form: double-stranded DNA, one strand shown
Medium: in vitro
Concentration: 250 nM
Notes: 60-bp whole probe
With: salmon DNA 0.4 mg/ml
Reference: random background probes
Reading: higher = stronger binding
Constant ends, left off below: GCCTAGCAC … GTCTTGATTCGCTTGACGCTGCTG
Residues (chain): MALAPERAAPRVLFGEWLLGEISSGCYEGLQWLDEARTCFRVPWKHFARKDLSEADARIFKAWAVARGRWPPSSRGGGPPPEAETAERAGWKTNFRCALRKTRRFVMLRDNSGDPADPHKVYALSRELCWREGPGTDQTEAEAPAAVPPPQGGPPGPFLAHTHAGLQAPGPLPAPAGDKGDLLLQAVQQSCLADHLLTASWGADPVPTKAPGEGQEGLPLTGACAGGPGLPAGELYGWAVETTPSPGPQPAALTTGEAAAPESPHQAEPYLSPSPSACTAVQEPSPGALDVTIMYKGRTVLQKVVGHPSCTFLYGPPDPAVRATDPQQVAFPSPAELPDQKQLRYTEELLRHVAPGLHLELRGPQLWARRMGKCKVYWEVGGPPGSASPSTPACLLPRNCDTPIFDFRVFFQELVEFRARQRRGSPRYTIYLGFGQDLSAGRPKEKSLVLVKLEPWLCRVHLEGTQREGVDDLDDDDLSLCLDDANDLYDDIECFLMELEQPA
Oligonucleotide	log fluorescence [z-score]
ATTGCTTTCTCTTTCATTGCGTGCTAG	1.21
ATTTACATGCATATAGTATAGTGCTAG	0.559
AGGCAGGCATAAAGGAAAAAGTGCTAG	-0.688
GACAAACTGGGGTATCGAGACGTGCTA	-0.199
CCAACACTCGGTTTCCAAATGTGCTAG	3.96
GACGGTCTCCTTATGCTGACGTGCTAG	0.014
TTAGGACGGGACTTTCGGTTAGTGCTA	0.662
TTGTTTTTCATTATTGTCTCGTGCTAG	2.05
TTAGGTATCGCACTGGGTTAGTGCTAG	0.154
GACGACATCAGTCTCGAGACGTGCTAG	0.166
TTACATTCCCCATTGTGTTGGTGCTAG	1.07
CGAGTTTTCTCTCCCATTCTGTGCTAG	1.39
GACGGTTTTGACACTGGGGACGTGCTA	0.26
GTGAGTCCCGAGAATGGTGTGGTGCTA	-0.66
GACGATTTCAGTATCGAGACGTGCTAG	0.542
GACGGTATCCTTCTCCTGAAGTGCTAG	0.0017
TTAGGAATCGGTATCGGTTAGTGCTAG	2.24

Set 3
Target: CEP164, C-terminal peptide (human)
Technique: DHFR complementation, deep sequencing
Medium: yeast
Notes: single substitutions, model-inferred values
Reference: wild type
Reading: higher = weaker binding
Starting sequence: PDZK1, PDZ domain 2 (human); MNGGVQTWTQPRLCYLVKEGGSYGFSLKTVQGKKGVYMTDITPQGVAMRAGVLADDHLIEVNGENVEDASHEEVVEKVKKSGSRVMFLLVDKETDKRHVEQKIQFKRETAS; partner HNRVKVYRF
Variant	binding free energy change [kcal/mol]
M1A	-0.193
T9A	-0.0736
F87P	1.06
L89F	0.412
D40F	0.661
G20L	0.522
G21Q	0.115
G21F	0.0806
F105W	-0.271
H71R	1.9
G82T	0.857
G63V	0.599
T42S	0.36
G32F	0.504
T9V	0.00481
K102I	0.0372
L16E	1.46
K28Q	-0.0191
K96F	0.0367
R49N	0.373
E64Y	0.342
G32V	0.864
E72L	0.535
H98W	-0.185
Y23V	1.25

Set 4
Target: Histone acetyltransferase KAT6A, winged helix 1, GST fusion (KAT6A, Homo sapiens, UniProt Q92794, residues 1-85)
Technique: protein binding microarray
Form: double-stranded DNA, one strand shown
Medium: in vitro
Concentration: not given
Notes: 8-mer, flanks averaged, mean of 2 arrays, mostly near background
Reference: not given
Reading: higher = stronger binding
Construct (chain): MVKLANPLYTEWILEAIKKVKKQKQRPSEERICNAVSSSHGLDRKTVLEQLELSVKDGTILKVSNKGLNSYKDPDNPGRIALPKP
Oligonucleotide	E-score
GAATAACC	-0.00624
AAGAAGCA	-0.0869
GCCAACAA	-0.171
CTCACAGA	-0.0568
ATGTCTCG	0.0666
ATCAACGA	-0.142
AAAAAGAA	-0.218
GGTATCAA	-0.072
AGCCGATG	0.0807
ACTGTATC	-0.00771
ACTCTGGG	-0.207
CTTTCCGC	0.238
AGGGCCCC	0.0826
CCGCGGTC	0.413
AAAACACA	-0.292
ATCGCAGG	-0.185
GGCTGCAC	-0.00308

Set 5
Target: RNA binding protein fox-1 homolog 2, RRM domain, GST-SBP tag (RBFOX2, Homo sapiens, UniProt O43251-10, residues 100-194)
Technique: RNA Bind-n-Seq
Form: RNA
Medium: in vitro
Concentration: 365 nM
Notes: natural RNA segment, single round, ends assumed
Reference: no-protein control
Reading: higher = stronger binding
Constant ends, left off below: GGGAGUUCUACAGUCCGACGAUC … UGGAAUUCUCGGGUGCCAA
Construct (chain): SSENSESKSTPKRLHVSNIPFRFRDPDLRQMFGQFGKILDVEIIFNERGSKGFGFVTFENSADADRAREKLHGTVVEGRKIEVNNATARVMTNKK
Oligonucleotide	RBNS enrichment (R)
GUUGCCUGCUUUGUGCUUUCUGCACCAGACAACCUGAUGGAACAUUUGCACCUGAGUUGUACAUUUUUGAAGUGUGCAGGGCAGCCUGGACACAAGCUUAGAUUCUCUAU	0.252
AAAUUUCAGUAUUUUAGUAAUAUGCCAGCUGUUCUUAAUGUAUUUAUUAAAAUGUAUAACAAUGUGAUUUUUCAAUGGUAUUAGUUCAAAUUGACGUGGAUUCAUGCCAC	1.64
AUCUCUCCUGAGCAGAUUGCCUGAUGGGAUUGACAAGGAGGCUCAUUGGGUUGUGGUUUGAACAUCGAGGGUGUGAAGAAAAUGAAGCAGUGGCUAAAGAAAUCUUCUCC	1.43
GGCCCAUUGCUGACGAUUAGUUCUAAAAUCUUAUUCCUCCUCUUCUCCCCUCACUUUUCCCUACUUCCUCUGCAAAAAGAUUUAACAAAUACAUUCAUAAGGAAAUGUGU	0.578
UCAAUUGUGCUUUAGGAAAUUAUUGACAGUUUUGCACAGGUUCUUGAAAACGUUAUUUAUAAUGAAAUCAACUAAAACUAUUUUUGCUAUAAGUUCUAUAAGGUGCAUAA	0.646
ACAUACUCCCGCCCCAAGGGAGGCUUCUCUCCAUCAGGGUGGUACACGGGCAACAAAGUAGGGAUUUGAUUCCCCUUUGAGGAGGUAGUGCUGUUUGCUUUUAGGUCUGG	0.456
AAAAUUUGUUUUGUAUUAGUUAUUUUACCUUUAGGGACCCUACAACUGAAGAGAGUGGAGAGAAUAAAGAAGUGAACUUUCAUUCAUGUCUGCUACUUUGACCUCAUAAA	0.615
ACAGUCAUUGUAAUUGGGUAGUUUUGUUAAUAAAUAUUUUUAAAUCUUGCUUUUCAGAAAUUACCGAAUGUGUAUAAACAAAUAAAGAAAAAUAAUUUAGCUGUGUUUUA	1.01
GGCGUCUUCACUGCUUUAUCUCAUGAUGCUUGCUUGUAAAACUUGAUUUUAGUUUUUCAUUUCUCAAAUAGGAAUACUACCUUUGAAUUCAAUAAAAUUCACUGCAGGAU	0.799
GCUGGCCCAAUGGAGCCUUACAGAACUAAUCAGGACUUGUGGAGACCUCUGCACUGAACUUCCUAUAAGUAACUUCCACCACACUGGUUUCUACUCUCAGAACUGCCCCA	0.479
GGCCUGUCAUCCAUGGGGCCAUUGCAGGCACUCUGCCGCCCGACCUUGAGGGCUGUGCCAAUCCUAGUGAACCAAAAUGCAAACAACUCACACAAGUGAAAAGCUCCCUG	0.752
CUCCUUUGUGAGCCACAGUUGUAGACCGUACCUCAGCCUUGGAGUCAACACAGCCCACAGCCCAUUUUACAGAAACCAAAACUGAGUUCUAACAGGAGGAGUGAUUUGCC	0.313

A few entries again (set 5):
Oligonucleotide	RBNS enrichment (R)
AAAUUUCAGUAUUUUAGUAAUAUGCCAGCUGUUCUUAAUGUAUUUAUUAAAAUGUAUAACAAUGUGAUUUUUCAAUGGUAUUAGUUCAAAUUGACGUGGAUUCAUGCCAC	1.64
AUCUCUCCUGAGCAGAUUGCCUGAUGGGAUUGACAAGGAGGCUCAUUGGGUUGUGGUUUGAACAUCGAGGGUGUGAAGAAAAUGAAGCAGUGGCUAAAGAAAUCUUCUCC	1.43
AAAAUUUGUUUUGUAUUAGUUAUUUUACCUUUAGGGACCCUACAACUGAAGAGAGUGGAGAGAAUAAAGAAGUGAACUUUCAUUCAUGUCUGCUACUUUGACCUCAUAAA	0.615
UCAAUUGUGCUUUAGGAAAUUAUUGACAGUUUUGCACAGGUUCUUGAAAACGUUAUUUAUAAUGAAAUCAACUAAAACUAUUUUUGCUAUAAGUUCUAUAAGGUGCAUAA	0.646
GCUGGCCCAAUGGAGCCUUACAGAACUAAUCAGGACUUGUGGAGACCUCUGCACUGAACUUCCUAUAAGUAACUUCCACCACACUGGUUUCUACUCUCAGAACUGCCCCA	0.479
GGCGUCUUCACUGCUUUAUCUCAUGAUGCUUGCUUGUAAAACUUGAUUUUAGUUUUUCAUUUCUCAAAUAGGAAUACUACCUUUGAAUUCAAUAAAAUUCACUGCAGGAU	0.799
